Measured values pooled from the literature.
Each numbered part is a random draw from the data of one study; scales do not carry over between parts. Substitutions count along the parent as printed.
Chain of UniProt Q14004 (whole entry, looked up): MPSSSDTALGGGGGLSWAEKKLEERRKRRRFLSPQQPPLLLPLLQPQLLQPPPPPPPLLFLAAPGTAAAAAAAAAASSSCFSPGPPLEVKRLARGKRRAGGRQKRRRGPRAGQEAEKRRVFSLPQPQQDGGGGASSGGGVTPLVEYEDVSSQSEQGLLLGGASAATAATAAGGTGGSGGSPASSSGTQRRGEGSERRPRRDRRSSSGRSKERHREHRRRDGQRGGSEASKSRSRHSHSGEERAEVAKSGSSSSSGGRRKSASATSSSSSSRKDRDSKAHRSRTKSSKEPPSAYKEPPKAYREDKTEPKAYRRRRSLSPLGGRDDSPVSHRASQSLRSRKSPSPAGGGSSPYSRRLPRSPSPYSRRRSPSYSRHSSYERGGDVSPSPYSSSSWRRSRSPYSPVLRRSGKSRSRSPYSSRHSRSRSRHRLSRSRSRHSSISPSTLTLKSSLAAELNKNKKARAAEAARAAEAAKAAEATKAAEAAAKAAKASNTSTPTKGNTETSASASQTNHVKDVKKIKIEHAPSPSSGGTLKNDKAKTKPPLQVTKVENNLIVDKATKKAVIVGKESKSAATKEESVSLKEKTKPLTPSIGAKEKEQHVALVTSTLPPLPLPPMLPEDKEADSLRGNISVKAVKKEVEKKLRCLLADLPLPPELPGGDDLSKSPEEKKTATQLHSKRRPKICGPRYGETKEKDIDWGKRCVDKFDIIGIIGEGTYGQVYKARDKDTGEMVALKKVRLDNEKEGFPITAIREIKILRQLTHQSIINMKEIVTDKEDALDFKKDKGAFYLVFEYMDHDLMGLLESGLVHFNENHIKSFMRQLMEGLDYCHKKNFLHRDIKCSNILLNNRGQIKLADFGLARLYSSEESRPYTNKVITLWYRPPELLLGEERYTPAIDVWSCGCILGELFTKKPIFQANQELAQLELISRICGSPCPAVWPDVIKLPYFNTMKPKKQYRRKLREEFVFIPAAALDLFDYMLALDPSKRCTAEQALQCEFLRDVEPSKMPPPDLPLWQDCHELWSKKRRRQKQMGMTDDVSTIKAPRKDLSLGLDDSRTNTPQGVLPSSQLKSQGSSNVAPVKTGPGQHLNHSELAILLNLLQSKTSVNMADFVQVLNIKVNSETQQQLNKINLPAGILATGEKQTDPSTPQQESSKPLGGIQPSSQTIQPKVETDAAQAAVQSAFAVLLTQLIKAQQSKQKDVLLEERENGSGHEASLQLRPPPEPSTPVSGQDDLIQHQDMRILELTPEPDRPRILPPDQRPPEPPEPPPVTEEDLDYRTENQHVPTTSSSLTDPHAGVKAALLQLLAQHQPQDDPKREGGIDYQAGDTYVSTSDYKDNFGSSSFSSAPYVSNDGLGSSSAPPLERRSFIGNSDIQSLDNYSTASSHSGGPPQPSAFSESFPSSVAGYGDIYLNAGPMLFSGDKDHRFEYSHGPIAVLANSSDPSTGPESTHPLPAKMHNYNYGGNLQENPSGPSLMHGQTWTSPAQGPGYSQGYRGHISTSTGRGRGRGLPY
Chain of UniProt Q96PY6 (whole entry, looked up): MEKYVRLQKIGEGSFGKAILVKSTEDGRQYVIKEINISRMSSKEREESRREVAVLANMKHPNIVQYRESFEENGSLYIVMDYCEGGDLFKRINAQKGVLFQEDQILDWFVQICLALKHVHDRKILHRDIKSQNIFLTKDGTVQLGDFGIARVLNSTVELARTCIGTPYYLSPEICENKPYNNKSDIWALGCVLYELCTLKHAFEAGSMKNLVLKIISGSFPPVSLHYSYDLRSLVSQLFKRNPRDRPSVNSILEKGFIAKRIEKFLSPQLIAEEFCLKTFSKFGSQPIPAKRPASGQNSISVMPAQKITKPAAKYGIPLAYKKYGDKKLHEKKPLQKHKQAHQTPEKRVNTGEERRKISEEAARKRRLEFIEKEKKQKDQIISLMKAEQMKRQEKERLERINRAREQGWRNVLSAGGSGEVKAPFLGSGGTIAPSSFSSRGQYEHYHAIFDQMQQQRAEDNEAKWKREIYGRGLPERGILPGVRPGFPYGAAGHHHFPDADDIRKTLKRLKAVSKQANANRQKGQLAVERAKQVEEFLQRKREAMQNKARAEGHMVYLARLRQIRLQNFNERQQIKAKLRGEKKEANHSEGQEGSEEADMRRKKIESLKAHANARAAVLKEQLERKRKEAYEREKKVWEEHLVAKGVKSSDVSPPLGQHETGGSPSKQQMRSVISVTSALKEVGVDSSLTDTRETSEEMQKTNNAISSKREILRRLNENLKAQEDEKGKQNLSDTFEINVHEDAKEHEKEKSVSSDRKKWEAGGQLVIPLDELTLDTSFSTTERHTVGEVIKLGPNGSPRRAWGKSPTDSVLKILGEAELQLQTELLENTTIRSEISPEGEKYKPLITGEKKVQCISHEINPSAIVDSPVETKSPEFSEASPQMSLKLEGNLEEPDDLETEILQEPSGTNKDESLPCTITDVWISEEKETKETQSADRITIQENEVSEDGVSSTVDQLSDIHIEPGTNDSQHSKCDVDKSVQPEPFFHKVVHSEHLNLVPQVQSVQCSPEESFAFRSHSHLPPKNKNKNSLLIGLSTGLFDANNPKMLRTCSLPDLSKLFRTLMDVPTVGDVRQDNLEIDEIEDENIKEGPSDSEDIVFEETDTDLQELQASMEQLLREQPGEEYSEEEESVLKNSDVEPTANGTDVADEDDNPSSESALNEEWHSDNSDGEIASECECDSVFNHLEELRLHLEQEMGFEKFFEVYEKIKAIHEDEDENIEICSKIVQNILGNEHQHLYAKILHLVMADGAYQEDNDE
Chain of UniProt Q8WTQ7 (whole entry, looked up): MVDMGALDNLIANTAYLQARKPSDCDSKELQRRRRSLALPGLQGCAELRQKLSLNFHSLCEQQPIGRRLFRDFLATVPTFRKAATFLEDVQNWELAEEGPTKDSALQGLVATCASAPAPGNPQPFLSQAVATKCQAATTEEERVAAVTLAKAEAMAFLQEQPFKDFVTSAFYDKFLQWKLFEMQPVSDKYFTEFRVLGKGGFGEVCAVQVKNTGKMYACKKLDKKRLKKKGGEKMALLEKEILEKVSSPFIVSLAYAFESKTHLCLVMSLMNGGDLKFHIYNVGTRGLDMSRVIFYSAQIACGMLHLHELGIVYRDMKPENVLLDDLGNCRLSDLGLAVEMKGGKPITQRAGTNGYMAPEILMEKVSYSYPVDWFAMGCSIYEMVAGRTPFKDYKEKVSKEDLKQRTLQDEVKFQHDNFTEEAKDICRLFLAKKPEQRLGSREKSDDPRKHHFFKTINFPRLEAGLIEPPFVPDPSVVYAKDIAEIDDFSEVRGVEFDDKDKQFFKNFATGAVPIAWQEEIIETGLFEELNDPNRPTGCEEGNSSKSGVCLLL
Chain of UniProt O15111 (whole entry, looked up): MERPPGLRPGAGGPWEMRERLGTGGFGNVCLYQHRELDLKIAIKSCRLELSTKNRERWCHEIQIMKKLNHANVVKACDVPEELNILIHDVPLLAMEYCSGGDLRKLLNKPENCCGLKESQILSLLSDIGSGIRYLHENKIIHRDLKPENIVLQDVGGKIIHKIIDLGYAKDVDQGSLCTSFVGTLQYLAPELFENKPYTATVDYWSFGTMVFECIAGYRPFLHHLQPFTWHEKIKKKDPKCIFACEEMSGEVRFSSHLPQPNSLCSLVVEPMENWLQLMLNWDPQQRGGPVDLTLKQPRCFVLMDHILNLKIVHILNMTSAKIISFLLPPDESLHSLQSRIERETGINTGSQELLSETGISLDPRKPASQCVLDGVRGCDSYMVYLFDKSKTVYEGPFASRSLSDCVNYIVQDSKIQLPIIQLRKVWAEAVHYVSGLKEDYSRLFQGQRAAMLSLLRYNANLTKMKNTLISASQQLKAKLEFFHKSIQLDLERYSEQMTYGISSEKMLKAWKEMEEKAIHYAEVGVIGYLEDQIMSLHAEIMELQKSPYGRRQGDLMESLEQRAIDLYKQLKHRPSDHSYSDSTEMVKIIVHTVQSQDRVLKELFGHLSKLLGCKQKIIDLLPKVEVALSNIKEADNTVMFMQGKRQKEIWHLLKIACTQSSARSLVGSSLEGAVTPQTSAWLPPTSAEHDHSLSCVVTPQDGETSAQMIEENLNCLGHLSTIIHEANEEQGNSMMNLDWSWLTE
Chain of UniProt P22607 (whole entry, looked up): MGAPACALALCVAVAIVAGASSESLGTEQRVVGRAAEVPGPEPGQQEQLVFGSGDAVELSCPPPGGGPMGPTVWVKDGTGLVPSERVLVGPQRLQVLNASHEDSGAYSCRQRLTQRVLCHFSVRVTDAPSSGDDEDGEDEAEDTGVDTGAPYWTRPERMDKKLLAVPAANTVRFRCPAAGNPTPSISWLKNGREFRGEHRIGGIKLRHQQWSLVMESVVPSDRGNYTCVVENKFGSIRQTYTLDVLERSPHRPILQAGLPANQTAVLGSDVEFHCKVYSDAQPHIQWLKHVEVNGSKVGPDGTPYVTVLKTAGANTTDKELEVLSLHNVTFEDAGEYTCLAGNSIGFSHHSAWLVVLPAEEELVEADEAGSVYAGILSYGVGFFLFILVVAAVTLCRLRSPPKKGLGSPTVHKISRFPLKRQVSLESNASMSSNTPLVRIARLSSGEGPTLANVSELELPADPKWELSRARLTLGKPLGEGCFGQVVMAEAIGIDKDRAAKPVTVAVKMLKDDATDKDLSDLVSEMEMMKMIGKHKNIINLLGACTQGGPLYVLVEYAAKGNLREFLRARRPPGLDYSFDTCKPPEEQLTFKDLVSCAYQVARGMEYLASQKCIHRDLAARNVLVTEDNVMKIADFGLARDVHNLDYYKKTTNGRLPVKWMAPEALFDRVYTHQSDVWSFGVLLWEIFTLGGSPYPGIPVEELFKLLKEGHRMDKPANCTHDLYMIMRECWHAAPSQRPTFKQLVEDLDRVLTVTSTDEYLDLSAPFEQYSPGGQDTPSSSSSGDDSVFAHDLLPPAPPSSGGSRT

Sample 1
Compound: CCOc1cc2ncnc(Nc3cccc(Br)c3)c2cc1OCC
Observed: enzyme activity
Mode: inhibitor
Tested at: 0.5 µM
Relative to: control
The remaining activity was 113% (MAPK3 (Homo sapiens, UniProt P27361)).
For NEK1 (Homo sapiens, UniProt Q96PY6): remaining activity read 99.2%.
The remaining activity was 85.9% (FRK (Homo sapiens, UniProt P42685)).
For LCK (Homo sapiens, UniProt P06239): remaining activity read 52.9%.
The remaining activity was 82.8% (ULK2 (Homo sapiens, UniProt Q8IYT8)).
The remaining activity was 102% (GRK7 (Homo sapiens, UniProt Q8WTQ7)).
GSK3B (Homo sapiens, UniProt P49841) — remaining activity: 96.8%.
It gave 96.4% for remaining activity (TEK (Homo sapiens, UniProt Q02763)).
The remaining activity was 103% (FGFR3 (Homo sapiens, UniProt P22607)).
The remaining activity was 101% (MAPKAPK2 (Homo sapiens, UniProt P49137)).
It gave 102% for remaining activity (MST1R (Homo sapiens, UniProt Q04912)).
The remaining activity was 90.9% (FGFR1 (Homo sapiens, UniProt P11362)).
The remaining activity was 105% (ARAF (Homo sapiens, UniProt P10398)).
It gave 101% for remaining activity (TAOK2 (Homo sapiens, UniProt Q9UL54)).

Sample 2
Target: DBP, bZIP domain (human)
Technique: DHFR protein complementation
Matrix: yeast
Setting: single substitutions, most at no-binding floor
Relative to: wild-type JUN-FOS pair
Direction: higher = stronger binding
Starting sequence: JUN, bZIP domain (human); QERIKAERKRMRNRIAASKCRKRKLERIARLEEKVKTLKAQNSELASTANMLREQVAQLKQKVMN; partner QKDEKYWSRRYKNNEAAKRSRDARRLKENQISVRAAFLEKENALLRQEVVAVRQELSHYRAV
`E44R` has a binding fitness of -1.27 natural log.
`E44M` has a binding fitness of -1.46 natural log.
`T37S` has a binding fitness of -1.47 natural log.
`N42A` gave a binding fitness of -1.5 natural log.
`L45F` gave a binding fitness of -1.51 natural log.
With `L52F` the binding fitness was -1.47 natural log.
With `L31M` the binding fitness was -1.64 natural log.
With `V35C` the binding fitness was -1.54 natural log.

Sample 3
Target: PABPC1L2, full length, GST fusion (mouse, UniProt A0ABA7IW68)
Technique: RNAcompete
Molecule type: RNA
Matrix: in vitro
Tested at: 20 nM
Setting: 7-mer, probes averaged, single round
Relative to: mean of 7-mers
Direction: higher = stronger binding
Target sequence (chain): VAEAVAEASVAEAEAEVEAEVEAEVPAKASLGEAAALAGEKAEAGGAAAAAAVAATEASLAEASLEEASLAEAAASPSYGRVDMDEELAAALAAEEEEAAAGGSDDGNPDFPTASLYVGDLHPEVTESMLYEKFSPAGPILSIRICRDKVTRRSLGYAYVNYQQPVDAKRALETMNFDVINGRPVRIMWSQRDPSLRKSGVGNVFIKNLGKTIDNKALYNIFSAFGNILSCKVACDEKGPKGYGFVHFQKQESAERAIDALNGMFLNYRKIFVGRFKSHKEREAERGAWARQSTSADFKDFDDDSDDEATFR
The 7-mer Z-score of `AGGAAAG` is reported as 0.249.
With `UCGCUGG` the 7-mer Z-score was -0.298.
`UAAUGGU` has a 7-mer Z-score of -0.195.
The 7-mer Z-score of `GGCCAAU` is reported as -0.0844.
The 7-mer Z-score of `AAAAGAU` is reported as 7.73.
`UGCCGGC` has a 7-mer Z-score of -0.233.
With `GCUAUGC` the 7-mer Z-score was -0.222.
`AGUCCAC` has a 7-mer Z-score of -0.351.

Sample 4
Structure (SMILES): CC(C)CC(=O)N1CCc2nc(-c3ccc(Br)cc3)nc(N(C)Cc3ccccc3)c2C1
Tested at: 0.1 µM
AAK1 (Homo sapiens, UniProt Q2M2I8); binding — remaining binding: 100%.
It gave 100% for remaining binding (CHUK (Homo sapiens, UniProt O15111); cell-free assay, competition with immobilised ligand).
It gave 100% for remaining binding (MAPK15 (Homo sapiens, UniProt Q8TD08); cell-free assay, competition with immobilised ligand).
It gave 100% for remaining binding (LIM domain kinase 2 (LIMK2, Homo sapiens, UniProt P53671); cell-free assay, competition with immobilised ligand).
It gave 100% for remaining binding (CDK13 (Homo sapiens, UniProt Q14004); cell-free assay, competition with immobilised ligand).
The remaining binding was 78% (MAPK10 (Homo sapiens, UniProt P53779); cell-free assay, competition with immobilised ligand).
It gave 100% for remaining binding (RET (Homo sapiens, UniProt P07949, V804L); cell-free assay, competition with immobilised ligand).
The remaining binding was 74% (STK33 (Homo sapiens, UniProt Q9BYT3); cell-free assay, competition with immobilised ligand).
The remaining binding was 100% (PLK3 (Homo sapiens, UniProt Q9H4B4); cell-free assay, competition with immobilised ligand).
Mast/stem cell growth factor receptor Kit, autoinhibited (KIT, Homo sapiens, UniProt P10721); cell-free assay, competition with immobilised ligand — remaining binding: 100%.
The remaining binding was 76% (PIK3CA (Homo sapiens, UniProt P42336, H1047Y); cell-free assay, competition with immobilised ligand).
CDK11B (Homo sapiens, UniProt P21127); cell-free assay, competition with immobilised ligand — remaining binding: 100%.
The remaining binding was 100% (MYLK4 (Homo sapiens, UniProt Q86YV6); cell-free assay, competition with immobilised ligand).
It gave 100% for remaining binding (CDC42BPA (Homo sapiens, UniProt Q5VT25); cell-free assay, competition with immobilised ligand).

Excerpt of the above (sample 4):
The remaining binding was 76% (PIK3CA (Homo sapiens, UniProt P42336, H1047Y); cell-free assay, competition with immobilised ligand).
The remaining binding was 78% (MAPK10 (Homo sapiens, UniProt P53779); cell-free assay, competition with immobilised ligand).
It gave 100% for remaining binding (CHUK (Homo sapiens, UniProt O15111); cell-free assay, competition with immobilised ligand).
It gave 100% for remaining binding (CDK13 (Homo sapiens, UniProt Q14004); cell-free assay, competition with immobilised ligand).
